Measured values gathered from unrelated publications.
Compare with care: the assays were run in different laboratories.
CHRM3: Muscarinic acetylcholine receptor M3 (CHRM3, Homo sapiens, UniProt P20309)
UniProt P20309, sequence (whole entry, looked up): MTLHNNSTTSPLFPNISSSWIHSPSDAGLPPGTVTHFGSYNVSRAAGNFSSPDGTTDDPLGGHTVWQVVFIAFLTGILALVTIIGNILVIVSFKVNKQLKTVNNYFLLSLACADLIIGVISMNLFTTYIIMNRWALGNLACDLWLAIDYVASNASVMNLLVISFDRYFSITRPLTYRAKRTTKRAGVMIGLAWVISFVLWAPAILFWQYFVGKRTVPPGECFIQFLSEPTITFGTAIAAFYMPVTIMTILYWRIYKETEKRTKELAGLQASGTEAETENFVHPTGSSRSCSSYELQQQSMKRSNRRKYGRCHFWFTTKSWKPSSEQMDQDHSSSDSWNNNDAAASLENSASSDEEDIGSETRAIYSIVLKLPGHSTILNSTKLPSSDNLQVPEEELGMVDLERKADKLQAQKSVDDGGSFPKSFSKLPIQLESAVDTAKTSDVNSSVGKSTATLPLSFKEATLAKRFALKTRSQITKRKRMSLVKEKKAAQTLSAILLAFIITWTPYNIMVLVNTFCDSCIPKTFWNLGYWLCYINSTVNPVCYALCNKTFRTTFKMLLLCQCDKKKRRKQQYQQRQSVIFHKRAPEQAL
UniProt P08912, sequence (whole entry, looked up): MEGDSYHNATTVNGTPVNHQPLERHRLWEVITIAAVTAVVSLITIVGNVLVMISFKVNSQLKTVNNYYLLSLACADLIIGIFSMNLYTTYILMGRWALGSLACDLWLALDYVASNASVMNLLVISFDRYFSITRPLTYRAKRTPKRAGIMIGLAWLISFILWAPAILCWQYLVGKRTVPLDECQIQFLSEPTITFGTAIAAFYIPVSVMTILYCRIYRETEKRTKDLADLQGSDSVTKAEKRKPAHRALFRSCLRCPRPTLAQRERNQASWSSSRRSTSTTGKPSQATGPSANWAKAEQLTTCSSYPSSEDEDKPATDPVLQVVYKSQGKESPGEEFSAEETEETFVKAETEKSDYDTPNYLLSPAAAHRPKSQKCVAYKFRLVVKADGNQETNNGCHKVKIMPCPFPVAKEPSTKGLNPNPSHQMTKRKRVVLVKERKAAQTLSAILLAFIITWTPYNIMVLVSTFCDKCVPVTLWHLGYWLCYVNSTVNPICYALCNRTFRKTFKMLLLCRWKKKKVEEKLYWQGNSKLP
UniProt P27338, sequence (whole entry, looked up): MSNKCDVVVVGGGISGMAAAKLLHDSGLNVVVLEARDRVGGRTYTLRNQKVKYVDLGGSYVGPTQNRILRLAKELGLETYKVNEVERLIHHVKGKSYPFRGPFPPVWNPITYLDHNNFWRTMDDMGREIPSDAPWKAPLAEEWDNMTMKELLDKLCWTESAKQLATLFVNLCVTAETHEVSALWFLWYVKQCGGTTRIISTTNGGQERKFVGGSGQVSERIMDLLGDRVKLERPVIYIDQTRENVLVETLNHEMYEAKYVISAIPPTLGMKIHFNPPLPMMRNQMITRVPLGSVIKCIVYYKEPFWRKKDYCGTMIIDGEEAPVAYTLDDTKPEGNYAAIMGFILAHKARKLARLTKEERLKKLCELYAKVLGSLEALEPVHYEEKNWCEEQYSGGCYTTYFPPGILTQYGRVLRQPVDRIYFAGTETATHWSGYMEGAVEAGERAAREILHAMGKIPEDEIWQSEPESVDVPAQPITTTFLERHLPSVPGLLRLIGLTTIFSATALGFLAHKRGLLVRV
UniProt Q8WUI4, sequence (whole entry, looked up): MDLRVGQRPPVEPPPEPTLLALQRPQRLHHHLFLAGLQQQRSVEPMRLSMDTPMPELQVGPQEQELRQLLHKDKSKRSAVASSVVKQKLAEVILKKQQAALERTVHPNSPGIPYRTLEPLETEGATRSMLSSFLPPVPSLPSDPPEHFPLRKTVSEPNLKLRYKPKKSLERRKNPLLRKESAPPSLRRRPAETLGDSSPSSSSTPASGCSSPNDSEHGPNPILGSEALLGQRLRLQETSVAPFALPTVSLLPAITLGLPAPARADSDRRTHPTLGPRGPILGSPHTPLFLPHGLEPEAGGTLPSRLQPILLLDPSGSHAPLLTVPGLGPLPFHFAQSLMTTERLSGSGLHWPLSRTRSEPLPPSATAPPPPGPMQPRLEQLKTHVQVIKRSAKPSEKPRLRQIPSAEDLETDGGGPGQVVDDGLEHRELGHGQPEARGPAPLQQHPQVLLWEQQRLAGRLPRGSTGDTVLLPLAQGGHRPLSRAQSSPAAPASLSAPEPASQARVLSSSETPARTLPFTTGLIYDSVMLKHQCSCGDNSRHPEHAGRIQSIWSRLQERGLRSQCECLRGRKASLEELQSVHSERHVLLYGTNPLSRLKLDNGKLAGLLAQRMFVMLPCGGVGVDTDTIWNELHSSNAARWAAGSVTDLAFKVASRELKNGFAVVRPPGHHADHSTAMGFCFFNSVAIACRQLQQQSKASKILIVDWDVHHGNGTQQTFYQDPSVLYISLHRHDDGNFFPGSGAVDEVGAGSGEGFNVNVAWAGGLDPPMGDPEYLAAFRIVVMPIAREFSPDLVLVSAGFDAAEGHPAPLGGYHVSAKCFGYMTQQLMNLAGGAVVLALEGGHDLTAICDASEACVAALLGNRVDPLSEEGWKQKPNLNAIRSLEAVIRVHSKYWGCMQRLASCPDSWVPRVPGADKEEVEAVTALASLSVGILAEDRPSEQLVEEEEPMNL
UniProt P11229, sequence (whole entry, looked up): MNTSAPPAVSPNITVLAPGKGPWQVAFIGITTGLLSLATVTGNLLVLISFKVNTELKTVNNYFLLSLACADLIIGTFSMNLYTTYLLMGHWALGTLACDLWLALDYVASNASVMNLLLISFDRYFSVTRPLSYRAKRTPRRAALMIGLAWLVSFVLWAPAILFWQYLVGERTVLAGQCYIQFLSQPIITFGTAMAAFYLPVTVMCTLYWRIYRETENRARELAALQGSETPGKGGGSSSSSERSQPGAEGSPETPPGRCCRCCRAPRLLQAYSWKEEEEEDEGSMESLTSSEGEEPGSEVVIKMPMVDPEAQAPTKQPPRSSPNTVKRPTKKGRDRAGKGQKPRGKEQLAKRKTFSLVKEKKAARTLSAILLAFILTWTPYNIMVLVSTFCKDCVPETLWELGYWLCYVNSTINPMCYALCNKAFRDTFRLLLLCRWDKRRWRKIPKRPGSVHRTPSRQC
UniProt P16050, sequence (whole entry, looked up): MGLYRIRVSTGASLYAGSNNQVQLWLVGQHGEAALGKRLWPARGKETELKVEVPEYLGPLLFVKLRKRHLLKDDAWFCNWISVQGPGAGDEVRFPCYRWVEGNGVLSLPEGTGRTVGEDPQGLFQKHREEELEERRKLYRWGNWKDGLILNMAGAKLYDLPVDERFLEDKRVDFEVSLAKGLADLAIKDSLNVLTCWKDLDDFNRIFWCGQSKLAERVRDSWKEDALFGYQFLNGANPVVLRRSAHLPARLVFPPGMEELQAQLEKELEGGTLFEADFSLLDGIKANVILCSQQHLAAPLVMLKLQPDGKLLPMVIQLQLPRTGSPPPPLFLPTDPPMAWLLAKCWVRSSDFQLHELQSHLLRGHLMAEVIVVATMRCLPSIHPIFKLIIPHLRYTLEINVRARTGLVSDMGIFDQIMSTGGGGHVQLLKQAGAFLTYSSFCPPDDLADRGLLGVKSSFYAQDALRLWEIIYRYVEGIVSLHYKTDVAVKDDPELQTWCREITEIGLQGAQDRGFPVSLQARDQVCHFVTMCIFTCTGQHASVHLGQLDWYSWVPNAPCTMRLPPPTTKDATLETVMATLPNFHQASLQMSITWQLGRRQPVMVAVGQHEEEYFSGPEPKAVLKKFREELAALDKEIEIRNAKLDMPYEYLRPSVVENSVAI
UniProt P49685, sequence (whole entry, looked up): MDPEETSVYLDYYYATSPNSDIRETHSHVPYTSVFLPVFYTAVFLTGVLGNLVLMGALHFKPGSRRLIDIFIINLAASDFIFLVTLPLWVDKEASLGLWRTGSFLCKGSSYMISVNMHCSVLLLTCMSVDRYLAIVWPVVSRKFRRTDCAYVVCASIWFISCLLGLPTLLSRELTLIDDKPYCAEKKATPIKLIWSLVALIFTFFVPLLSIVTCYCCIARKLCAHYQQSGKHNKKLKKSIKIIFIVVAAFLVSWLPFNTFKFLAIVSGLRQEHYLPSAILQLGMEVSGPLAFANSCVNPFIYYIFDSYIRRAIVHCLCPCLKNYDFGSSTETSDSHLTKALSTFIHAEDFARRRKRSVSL

`CCC(=O)NC1CN(CCCCC2CCN(CC(=O)N3c4ccccc4NC(=O)c4ccccc43)CC2)CCN(CC(=O)N2CCC(N3CCC(n4c(=O)[nH]c5ccccc54)CC3)CC2)C1` (stereo not drawn) gave a Ki of 589 nM (CHRM3; ligand displacement, radioligand).
With `O=C1CCC(N2C(=O)c3ccc(N4CCC(C(=O)N5CCC(CCN6CCC(CNC(=O)c7cccc(-c8noc(C(F)(F)F)n8)c7)(c7nc(-c8ccccc8)cs7)CC6)CC5)CC4)cc3C2=O)C(=O)N1` (stereo not drawn) the DC50 was 25.1 nM (HDAC7 (Homo sapiens, UniProt Q8WUI4); degrader, cell-based).
The Kb of `CCCCCCOc1ccc(C(=O)OCCN2CC=CCC2)cc1` is reported as 4070 nM (CHRM3; inositol phosphate accumulation, antagonist, Schild analysis; CHO; with: carbachol).
`COc1ccc(CCCN[C@H]2CCC[C@@H]2CN[C@@H]2CCC[C@H]2CNCCCCN[C@@H]2CCC[C@H]2CN)cc1` gave a Ki of over 500000 nM (MAOB (Homo sapiens, UniProt P27338); enzyme activity, inhibitor).
The EC50 of `CC(C)C[C@@H]1NC(=O)[C@H](CCCNC(=N)N)NC(=O)[C@H](C(C)C)NC(=O)[C@H](Cc2c[nH]cn2)NC(=O)[C@H](Cc2c[nH]cn2)NC(=O)CNC(=O)[C@H](CCCCN)NC(=O)[C@H](CC(C)C)NC(=O)[C@H](CC(N)=O)NC(=O)[C@H]([C@@H](C)O)NC(=O)[C@H](CO)NC(=O)[C@H](CC(N)=O)NC(=O)[C@@H]2CCCN2C(=O)[C@H](CO)NC(=O)[C@@H]2CCCN2C(=O)[C@H](C(C)C)NC(=O)[C@H](CCCNC(=N)N)NC(=O)[C@H](Cc2c[nH]cn2)NC(=O)[C@@H]2CSSC[C@H](NC1=O)C(=O)N[C@@H](CCCCN)C(=O)N1CCC[C@H]1C(=O)N[C@H](C(=O)N[C@@H](CCCCN)C(=O)N[C@@H](CC(C)C)C(=O)N[C@@H](CCC(=O)O)C(=O)N1CCC[C@H]1C(=O)N[C@@H](CCC(=O)O)C(=O)N1CCC[C@H]1C(=O)N[C@@H](CCCNC(=N)N)C(=O)N[C@@H](CC(C)C)C(=O)N[C@@H](Cc1c[nH]c3ccccc13)C(=O)N[C@H](C(=O)N[C@H](C(=O)N1CCC[C@H]1C(=O)NCC(=O)N[C@@H](C)C(=O)N[C@@H](CC(C)C)C(=O)N1CCC[C@H]1C(=O)N[C@@H](CCC(N)=O)C(=O)N[C@H](C(=O)O)C(C)C)C(C)C)C(C)C)CSSC[C@H](NC(=O)[C@H](CC(C)C)NC(=O)[C@H](CCCNC(=N)N)NC(=O)[C@@H](NC(=O)[C@H](CCCNC(=N)N)NC(=O)[C@H](CCCNC(=N)N)NC(=O)CNC(=O)[C@H](CO)NC(=O)[C@H](Cc1c[nH]c3ccccc13)NC(=O)[C@H](C)NC(=O)[C@H](CCCCN)NC(=O)[C@H](C)NC(=O)[C@@H]1CCCN1C(=O)[C@H](CCCNC(=N)N)NC(=O)[C@H](CCCNC(=N)N)NC(=O)[C@@H](N)CCCCN)[C@@H](C)O)C(=O)N2` is reported as 28.8 nM (G-protein coupled receptor 15, with GoB (Homo sapiens, UniProt P49685); GoB activation, agonist, BRET; HEK293A transfected GPR15).
`O=C1Nc2ccccc2N(C(=O)CN2CCC(CCCCN3CCN(CCOC(=O)C4c5ccccc5Oc5ccccc54)CC3)CC2)c2ccccc21` has a Ki of 7.59 nM (CHRM3; ligand displacement, radioligand).
With `CN1CCN(CC(=O)N2N=C3/C(=C/c4ccccc4)CCCC3C2c2ccccc2)CC1` (mixture of isomers) the AC50 was 7800 nM (ALOX15 (Homo sapiens, UniProt P16050); enzyme activity, activator; pH 7.5, 0.01% Triton X-100, with: arachidonic acid 10 µM).
The Ki of `NCc1cc(C(=O)NCCN2CCN(CCCCC3CCN(CCCN4C(=O)CCc5ccccc54)CC3)CC2)cc(C(=O)NCCN2CCN(CCCCC3CCN(CC(=O)N4c5ccccc5NC(=O)c5ccccc54)CC3)CC2)c1` is reported as 20.4 nM (CHRM5 (Homo sapiens, UniProt P08912); ligand displacement, radioligand).
With `CCCCCCOc1ccc(C(=O)OCC[N+]2(C)CC=CCC2)cc1` (stereo not drawn) the Kb was 20.9 nM (CHRM1 (Homo sapiens, UniProt P11229); inositol phosphate accumulation, antagonist, Schild analysis; CHO; with: carbachol).

Some of these lines once more:
The Kb of `CCCCCCOc1ccc(C(=O)OCCN2CC=CCC2)cc1` is reported as 4070 nM (CHRM3; inositol phosphate accumulation, antagonist, Schild analysis; CHO; with: carbachol).
